Measured values from different studies.
Each numbered part is a random draw from the data of one study; scales do not carry over between parts. “And” joins repeats or separate records; there may be more than shown. Substitutions count along the parent as printed.

Sample 1
Target: Histone acetyltransferase KAT6A, both winged helices, GST fusion (KAT6A, Homo sapiens, UniProt Q92794, residues 1-181)
Method: protein binding microarray
Form: double-stranded DNA, one strand shown
Sample: in vitro
Tested at: not given
Notes: 8-mer, flanks averaged, mean of 2 arrays, mostly near background
Baseline: not given
Direction: higher = stronger binding
Residues (chain): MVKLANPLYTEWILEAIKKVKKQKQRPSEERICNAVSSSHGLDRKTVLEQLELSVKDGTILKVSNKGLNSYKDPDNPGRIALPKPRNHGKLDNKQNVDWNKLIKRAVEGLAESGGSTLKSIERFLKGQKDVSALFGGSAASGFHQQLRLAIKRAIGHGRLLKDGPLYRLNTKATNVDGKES
Strand | E-score
AAACTGTG | -0.194
CAAGTTCG | -0.116
CAATCAGC | -0.0638
AACATCGG | 0.0577
AGAAAGGG | -0.202
CGCTTACA | 0.113
ACGCCTGG | -0.0247

Sample 2
Target: Sal-like protein 4, full length isoform A (SALL4, Homo sapiens, UniProt Q9UJQ4, residues 1-1053)
UniProt Q9UJQ4, sequence (whole entry, looked up): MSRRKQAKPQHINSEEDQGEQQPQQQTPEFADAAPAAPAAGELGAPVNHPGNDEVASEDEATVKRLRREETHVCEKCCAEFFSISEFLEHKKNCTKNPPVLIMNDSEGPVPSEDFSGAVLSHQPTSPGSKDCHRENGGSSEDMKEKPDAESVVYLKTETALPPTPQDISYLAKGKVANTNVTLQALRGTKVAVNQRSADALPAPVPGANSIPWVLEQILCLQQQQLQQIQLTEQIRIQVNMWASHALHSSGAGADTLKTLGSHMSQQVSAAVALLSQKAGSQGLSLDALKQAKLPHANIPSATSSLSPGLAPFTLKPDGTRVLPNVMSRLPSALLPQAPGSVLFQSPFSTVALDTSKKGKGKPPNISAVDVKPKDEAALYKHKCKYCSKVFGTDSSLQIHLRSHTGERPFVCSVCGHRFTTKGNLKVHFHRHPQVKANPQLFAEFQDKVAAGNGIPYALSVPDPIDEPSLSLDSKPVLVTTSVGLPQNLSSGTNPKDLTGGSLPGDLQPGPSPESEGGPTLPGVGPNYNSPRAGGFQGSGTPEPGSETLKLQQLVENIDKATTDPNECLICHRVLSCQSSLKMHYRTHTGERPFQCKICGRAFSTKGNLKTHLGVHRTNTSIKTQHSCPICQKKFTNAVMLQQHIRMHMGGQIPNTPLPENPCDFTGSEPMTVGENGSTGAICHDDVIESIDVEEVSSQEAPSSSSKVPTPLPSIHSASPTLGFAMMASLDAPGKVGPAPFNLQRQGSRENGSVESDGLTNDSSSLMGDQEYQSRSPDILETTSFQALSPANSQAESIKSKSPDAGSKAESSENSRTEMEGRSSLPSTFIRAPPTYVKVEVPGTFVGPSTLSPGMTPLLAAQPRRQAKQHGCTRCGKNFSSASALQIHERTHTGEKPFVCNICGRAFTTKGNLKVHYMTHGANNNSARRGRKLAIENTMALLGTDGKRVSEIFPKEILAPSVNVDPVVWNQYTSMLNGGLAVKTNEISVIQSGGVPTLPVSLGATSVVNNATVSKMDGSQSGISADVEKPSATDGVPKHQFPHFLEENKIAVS
Method: universal PBM
Form: double-stranded DNA, one strand shown
Sample: in vitro
Tested at: 600 nM
Notes: 8-mer, flanks averaged, mean of replicates
Direction: higher = stronger binding
Strand | E-score
CTACGGTA | -0.103
CACGGGAA | -0.254
ATTTTTTG | 0.342
ACGATGCA | 0.0415
CAGCCCCG | -0.356

Sample 3
Target: CCND3, cyclin fold, Cln2 fusion (human)
Method: yeast growth competition, sequencing
Sample: yeast
Notes: weak parent motif
Baseline: not given
Direction: higher = stronger binding
Parent: E2F1 docking peptide (human); PPVKRRLDLETDH; partner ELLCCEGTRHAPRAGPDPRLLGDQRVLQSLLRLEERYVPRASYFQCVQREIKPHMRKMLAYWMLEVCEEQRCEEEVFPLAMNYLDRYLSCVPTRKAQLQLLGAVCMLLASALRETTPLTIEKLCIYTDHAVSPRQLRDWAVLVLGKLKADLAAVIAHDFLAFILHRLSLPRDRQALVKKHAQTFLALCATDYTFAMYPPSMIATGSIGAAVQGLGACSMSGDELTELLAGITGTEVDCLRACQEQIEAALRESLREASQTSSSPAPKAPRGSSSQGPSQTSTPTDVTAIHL
Substitution | normalised enrichment score
P1Y | 0.289
P1N | 0.17
D12C | 0.125
H13N | 0.0313
R5P | -0.0288
E10I | 0.138

Mixed results
Substance | target | assay | test system | conditions | scale | measurement | value
PhoQ, residues 284 288 289 292 302 303 AGGCYF | PhoP, residues 12 14 15 18 19 LWHCS (Escherichia coli, UniProt P23836) | Sort-seq, measured: YFP reporter | E. coli | PhoQ-PhoP variant library, added: 10 µM Mg2+ | baseline: high Mg2+ state, higher = stronger signaling | fold induction | 19.3 and 9.1
